Measurements collected from several papers.
A part holds a random share of what one study measured.

Study 1
Target: Ras GTPase-activating protein-binding protein 1, C-terminal RGG region (G3BP1, Homo sapiens, UniProt Q13283)
Chain of UniProt Q13283 (whole entry, looked up): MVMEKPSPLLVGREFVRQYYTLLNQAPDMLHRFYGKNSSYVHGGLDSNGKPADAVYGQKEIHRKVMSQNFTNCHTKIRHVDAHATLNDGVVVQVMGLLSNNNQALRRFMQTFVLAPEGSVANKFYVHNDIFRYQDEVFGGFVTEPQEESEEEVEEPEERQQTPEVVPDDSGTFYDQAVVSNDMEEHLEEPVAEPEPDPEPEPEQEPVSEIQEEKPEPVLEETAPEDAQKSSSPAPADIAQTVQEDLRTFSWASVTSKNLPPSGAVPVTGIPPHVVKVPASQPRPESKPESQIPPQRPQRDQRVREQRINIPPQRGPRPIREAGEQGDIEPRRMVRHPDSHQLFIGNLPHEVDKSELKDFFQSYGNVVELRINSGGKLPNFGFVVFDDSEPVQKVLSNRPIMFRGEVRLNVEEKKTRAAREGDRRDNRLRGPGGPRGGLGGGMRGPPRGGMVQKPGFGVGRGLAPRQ
Technique: RNA Bind-n-Seq
Molecule type: RNA
Medium: in vitro
Concentration: 1 µM
Setting: whole 134-nt RNA, ends assumed
Together with: 150 mM KCl
Relative to: input library
Reading: higher = stronger binding
Oligonucleotide | log2 enrichment
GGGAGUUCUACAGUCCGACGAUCCACUGACAACACGCACCCACACAGACACAGAGGGAAGGGGUUGGGAUGGGGACAGGGUGCACAGCAGGGCGGGGUAGGACCCCAGCCCCUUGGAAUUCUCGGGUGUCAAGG | 0.271
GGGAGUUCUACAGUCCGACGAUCUCCUGUGCUACACAUCGUAUGUACCGAAUCGGGAAAGGGUUUUUUUGGGUUUUUUUGGGAAAGUAUUAUGUUACGCCGUUCGGAUCUGCAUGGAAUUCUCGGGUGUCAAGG | -0.47
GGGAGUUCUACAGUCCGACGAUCAGUCCUGUGCUACACAUCGUAUGUACCGAAUCGGGGUUUGGGGAAAGGGGUUUGGGGAAAGUAUUAUGUUACGCCGUUCGGAUCUGCACUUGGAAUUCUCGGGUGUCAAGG | 3.32
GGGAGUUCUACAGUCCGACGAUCUCCUGUGCUACACAUCGUAUGUACCGAAUCGGGGAAAAAGGGGAAAAAGGGGAAAGGGGAAAGUAUUAUGUUACGCCGUUCGGAUCUGCAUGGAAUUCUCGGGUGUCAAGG | 2.32
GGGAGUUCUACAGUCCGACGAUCUGGCACUGGUGGCAUGCGGGGAGGAAGAGGUGGCCUCAUGGAUCGUGGUGGUCCCGGUGGAAUGUUCAGAGGUGGCCGUGGUGGAGACAGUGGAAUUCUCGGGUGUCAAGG | 1.67
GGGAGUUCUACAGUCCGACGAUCCCUGUGCUACACAUCGUAUGUACCGAAUCGGAAAAAAAGGGGAAAAAAAGGGAAAAAAAGGAAAGUAUUAUGUUACGCCGUUCGGAUCUGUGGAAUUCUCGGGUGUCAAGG | -1.86
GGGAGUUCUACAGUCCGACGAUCCACAGACAACACGCACCCACACAGACACAGAGGGAAGGGGUUGGGAUGGGGACAGGGUGCACAGCAGGGCGGGGUAGGACCCCAGCACCUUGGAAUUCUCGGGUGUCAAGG | -1.07
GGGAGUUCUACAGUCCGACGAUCUCCUGUGCUACACAUCGUAUGUACCGAAUCGGGGAAAGGGGAAAGGGGUUUUUUUGGGGAAAGUAUUAUGUUACGCCGUUCGGAUCUGCAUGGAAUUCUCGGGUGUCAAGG | 2.59
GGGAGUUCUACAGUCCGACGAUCUGGCCCUGGUGGCAUGCGGGGAGGAAGAGGUGGCCUCAUGGAUCGUGGUUGUCCCGGUGGAAUGUUCAGAGGUGGCCGUGGUGGAGACAGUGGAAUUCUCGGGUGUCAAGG | 1.3
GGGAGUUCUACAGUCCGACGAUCUGGGGUCUGCGUACGCCUGGAGUCCUUCCCCGCUGUGCUCAGCAUGGACCCUAUCCGGAGCUUCUGCGGGAAGCUGCGGUCUCUGGCCAGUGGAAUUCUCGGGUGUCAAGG | -0.523

Study 2
Target: Sal-like protein 4, full length isoform B (SALL4, Homo sapiens, UniProt Q9UJQ4-2, residues 1-616)
Technique: universal PBM
Molecule type: double-stranded DNA, one strand shown
Medium: in vitro
Concentration: not given
Setting: 8-mer, flanks averaged, mean of replicates
Reading: higher = stronger binding
Construct (chain): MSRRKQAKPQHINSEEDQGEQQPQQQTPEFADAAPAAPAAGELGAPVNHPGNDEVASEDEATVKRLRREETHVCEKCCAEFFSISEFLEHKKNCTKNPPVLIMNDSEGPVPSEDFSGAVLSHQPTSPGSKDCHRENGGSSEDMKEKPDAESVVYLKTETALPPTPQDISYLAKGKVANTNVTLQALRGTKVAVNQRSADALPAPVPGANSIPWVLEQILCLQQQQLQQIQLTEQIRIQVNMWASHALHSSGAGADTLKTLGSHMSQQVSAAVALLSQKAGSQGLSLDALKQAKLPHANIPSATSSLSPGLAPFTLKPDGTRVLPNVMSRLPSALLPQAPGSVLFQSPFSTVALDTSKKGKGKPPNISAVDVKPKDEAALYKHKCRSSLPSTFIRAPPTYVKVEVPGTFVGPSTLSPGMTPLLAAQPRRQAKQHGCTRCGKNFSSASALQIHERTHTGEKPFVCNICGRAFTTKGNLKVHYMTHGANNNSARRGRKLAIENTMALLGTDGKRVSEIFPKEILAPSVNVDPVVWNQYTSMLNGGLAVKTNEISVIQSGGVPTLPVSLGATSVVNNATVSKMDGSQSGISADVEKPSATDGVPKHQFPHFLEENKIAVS
Oligonucleotide | E-score
AGTGAAAA | 0.18
AGAACCCC | -0.227
CTGCCAGC | -0.131
CGGCAGCA | -0.175
CCGCCACG | -0.138
GAAGAGAC | 0.00928
CACGGATG | 0.0281
AGTTTGAC | 0.0241
AGGAGTCA | 0.0684
ACGGTCAT | -0.0333
AATGAGCT | 0.098
AGTTTGCG | -0.173
ACTCTCCC | -0.173
CTCTAGGA | -0.182
AAGTTCAT | 0.14
GGTTCTGA | -0.0973

Study 3
Target: Histone acetyltransferase KAT6A, winged helix 1, GST fusion (KAT6A, Homo sapiens, UniProt Q92794, residues 1-85)
Technique: protein binding microarray
Molecule type: double-stranded DNA, one strand shown
Medium: in vitro
Concentration: not given
Setting: 8-mer, flanks averaged, mean of 2 arrays, mostly near background
Relative to: not given
Reading: higher = stronger binding
Target sequence (chain): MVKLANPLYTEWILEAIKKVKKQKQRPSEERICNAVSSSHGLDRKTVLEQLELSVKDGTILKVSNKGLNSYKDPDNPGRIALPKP
Oligonucleotide | E-score
ATATCTAC | 0.00341
AGGCGACT | -0.018
TATCTCGA | -0.104
AGAATGTC | -0.25
TAATGGTA | -0.0591
ATATGACG | 0.023
GAATTGTA | -0.192
TCTCGAAA | -0.162
GGATACTA | -0.117
CATAGTTA | 0.0955
ATTCTTTA | -0.14
CTATACTC | 0.0587
AGAACCGC | 0.127
CTATATCC | -0.111
GACCCGAC | 0.201
CTTATACC | -0.0725
GCCCGCGA | 0.337
ATTAAAGC | -0.0387
CCATCAGG | -0.0134
CATAAATG | -0.107
GTAGCCTA | -0.0601
ATTCTTGC | 0.0448
CAACGTAC | -0.137
AGTTCGTA | -0.0369
ATCGCGCG | 0.425

Study 4
Target: PABPC1L2, full length, GST fusion (mouse, UniProt A0ABA7IW68)
Technique: RNAcompete
Molecule type: RNA
Medium: in vitro
Concentration: 20 nM
Setting: 7-mer, probes averaged, single round
Relative to: mean of 7-mers
Reading: higher = stronger binding
Target sequence (chain): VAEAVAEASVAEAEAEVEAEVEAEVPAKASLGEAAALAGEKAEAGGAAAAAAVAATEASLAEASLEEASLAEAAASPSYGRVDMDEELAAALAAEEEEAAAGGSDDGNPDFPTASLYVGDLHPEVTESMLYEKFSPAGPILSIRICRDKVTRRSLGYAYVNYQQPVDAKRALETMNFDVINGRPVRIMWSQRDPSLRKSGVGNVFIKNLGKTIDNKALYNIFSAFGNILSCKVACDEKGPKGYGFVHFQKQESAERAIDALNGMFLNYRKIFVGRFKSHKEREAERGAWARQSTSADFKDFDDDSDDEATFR
Oligonucleotide | 7-mer Z-score
UGCACUC | -0.338
CAAAGAA | 1.28
GUGCGCU | -0.0409
GACCAAG | -0.00652
GGACACA | 0.265
GUGGGAC | 0.262
AUCCUCA | -0.306
GGAUGCA | 0.204
CUGACAC | -0.0844
ACCUUUU | -0.144
GAAGCCG | -0.19
AUUGUGA | -0.119
ACCAUCC | -0.226
UGUAAAC | 0.321
AACUAGC | -0.0681
AAAGGAC | 1.11
CUUUAAG | 0.432

Study 5
Target: RNA binding protein fox-1 homolog 2, RRM domain, GST-SBP tag (RBFOX2, Homo sapiens, UniProt O43251-10, residues 100-194)
Technique: RNA Bind-n-Seq
Molecule type: RNA
Medium: in vitro
Concentration: 365 nM
Setting: natural RNA segment, single round, ends assumed
Relative to: no-protein control
Reading: higher = stronger binding
Residues (chain): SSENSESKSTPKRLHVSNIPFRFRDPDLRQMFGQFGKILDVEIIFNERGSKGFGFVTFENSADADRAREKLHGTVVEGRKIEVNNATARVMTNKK
Oligonucleotide | RBNS enrichment (R)
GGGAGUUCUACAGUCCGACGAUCUUUUAAAAAAUGUAUUCUACUGUAACAAGUUAAUAAAGAGAUUUUUUAAAAAACUAUAAACUAGAAAUUGAGAGUCUUGCAUUCUCUUUUGUAUUUGAUUAUUGUGUCUGUGGAAUUCUCGGGUGCCAA | 0.51
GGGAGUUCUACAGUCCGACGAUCAUCCUCUGCUGCCCGGGGCAUUGGAGCCCCUGUGCUAGGAAGCUGUCAGUUUUGAGUAUCAUUGGCCCUUUCCAGCACAUGGGUGAGAAAACAGGCCACGACUUGUCACUUGGAAUUCUCGGGUGCCAA | 0.369
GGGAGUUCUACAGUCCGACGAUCUUUCCCAAAGACCCACACUAUGUAUCAGGAGCCUGCACCAUGCCAUUUGAAUGACCCUCAGCAAUGUGCCUCCCUGCCCUCAAAUUCCCAGUUGAUAACAGUGUUUGAUUUGGAAUUCUCGGGUGCCAA | 6.96
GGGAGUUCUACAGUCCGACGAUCUGGCAUUAAAGGCUGUGCUCACGUGACAAGAGUGCCUUUGAGCUGUAAUGACCAGUGUUUAGAGUCCCUGUUGCUGAUACCUUUGAGUGAUUGACACCUGCUGCUUUUGAUGGAAUUCUCGGGUGCCAA | 2.2
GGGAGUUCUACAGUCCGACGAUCUGCUCAUGAGAGAUGUCAGGCUUCCUGGAGGCAUCAGGCUUUGAGCCCUGCUGGGGUCCAACUGACCUGGGACCAGGUGUCGCGCAGAGAUGUGCCUCAUUCUGUGCCUCUGGAAUUCUCGGGUGCCAA | 0.28
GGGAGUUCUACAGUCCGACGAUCAUUGAUAUCAUACAUUUAGACUGCUGUUCUGAUUGCAUUUAUCUUUUUCCUACAUCAUUUAGAAUUUUAUUUCCCUGAUUCAGUUUUUGCUGCUGUGAAACAGCUCUGAUUGGAAUUCUCGGGUGCCAA | 0.314
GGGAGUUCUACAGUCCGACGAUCGAUGCCAUUUGGCAGCUUAAGCACAUCCUGCCAGCAGGCUUUAAGUGGCUGUUCUAGGCAUAGCCCUCCCUGAACUAGAAAGGAGAGUAACCAGUUUGCUAUGCUGCAUCUGGAAUUCUCGGGUGCCAA | 0.445
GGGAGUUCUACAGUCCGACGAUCCCGAGGGAAGAAGGUGCGUCGGAGUGGCAGAUGCAGGAAAUGAGCUGUCUAUUAGCCUUGCCUGCCCCACCCAUGAGGUAGGCAGAAAUCCUCACUGCCAGCCCCUCUUAUGGAAUUCUCGGGUGCCAA | 0.316
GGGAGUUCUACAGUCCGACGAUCUAUUUGUUACUAAAGCUAUAUUUCUGAUAAAAAAUAUUUUAGGAUAAUUGCCUACAGAGGGAUUUAUUUUUAUGAUGCUGGAAAUAUGAAAUGUAUUUUAAAAUUUCACUUGGAAUUCUCGGGUGCCAA | 0.776
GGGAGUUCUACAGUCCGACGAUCUCUUGUAUUUUCUGACCACAUAAAGGCUUCUUCUCUUUGUAAUAAAGUAGAAAAGCUCUCCUCACUGAGUGUUGGCUUUGAUUUGAAAUUGUGACAUUUCUUCUUCUCCAUGGAAUUCUCGGGUGCCAA | 0.294
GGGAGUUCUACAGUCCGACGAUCCUCAUCCAGUCCUCUCUUCCUCAGGCCACCCAGGGACAGUUCACAUCUGCAGCCUUCAGAAUGUCCUGUAGGAGUGUCACCAACCCAGGUCCAAGUGUUCAUGCCUGUCCUGGAAUUCUCGGGUGCCAA | 0.563
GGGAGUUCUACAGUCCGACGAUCACUGUCCCUGAAGCCUUCGCAUCUCAGCUCUUCACCCCUGGGAGGCAGCUGAUCGCCCUGCGUGCUGUGUCGCGCUGCUUUGUCCCAGACACAAACCAGCACGUCAAGGGUGGAAUUCUCGGGUGCCAA | 0.756

Repeated from above (study 2):
Oligonucleotide | E-score
GAAGAGAC | 0.00928
CCGCCACG | -0.138
GGTTCTGA | -0.0973
AGTTTGAC | 0.0241
ACGGTCAT | -0.0333
AGTTTGCG | -0.173
